Measurements pooled from the literature.
Every numbered part comes from another study and shows a few of its results, in no order. Positions count from the first letter of the parent shown.

Series 1 — technique: RNA Bind-n-Seq; molecule type: RNA; sample: in vitro; tested at: not given; baseline: input RNA pool; reading: higher = stronger binding
Target: RING finger protein unkempt homolog, zinc fingers 1-6, GST-SBP tag (UNK, Homo sapiens, UniProt Q9C0B0, residues 30-357)
Notes: RNA with constant flanks, human-mouse chimeric sites, ends assumed
All sequences stand within: GGGAGUUCUACAGUCCGACGAUC … CAACAGAGGAUUGAGCAUCA
Residues (chain): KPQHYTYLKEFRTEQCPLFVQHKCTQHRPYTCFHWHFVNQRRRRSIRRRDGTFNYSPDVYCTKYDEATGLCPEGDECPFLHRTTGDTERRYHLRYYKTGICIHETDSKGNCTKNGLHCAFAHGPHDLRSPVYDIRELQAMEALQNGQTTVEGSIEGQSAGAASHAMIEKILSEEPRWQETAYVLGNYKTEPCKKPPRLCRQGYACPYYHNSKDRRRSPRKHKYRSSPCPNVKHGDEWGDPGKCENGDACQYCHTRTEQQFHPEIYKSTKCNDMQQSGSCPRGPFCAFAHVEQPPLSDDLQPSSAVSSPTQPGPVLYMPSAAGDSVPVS
Strand | bound/input enrichment [ratio]
CUAAUCCCCUUUACUGCUCCCCCACUUCUCAUGGUAAUAACAAAGUCUUAUAUCCCCGUCCUAGCUUUCACUCAGAUGGCUUAUGGAGCCGGUUUCCUAGCUUUCUUGGGUGGGAUCAGA | 0.31
UGGCGCCUGCGCUCCCCGUUUUUAAAUUUAAGUGUAUUUUUAUAAGAUACAUGUAUUUACAAUUGAGCUUUUGUUACAUAAUGCUGAAAUGCUACUGGAGAUUAUGAAAAAUGUUUCAAU | 0.335
CGAGACAAAGCAUCUAGGAACAUGCGAGGCUCCCGGAUGAAUGGGUUGCCUAGCCCCACUCACAGCGCCCACUGUAGCUUCUACCGAACCAGAACCUUGCAGGCACUGAGUAAUGAGAAG | 0.0505
UCCUGGUCGUGUCCCAGUGCAGGACGAUGUGAACAAAAACUCAAAGCGGACCCUCUAUUGUAGUUCUUUUUUUAAAUAAUGUGCUAUUAUUGUUUGUCUUUUUUUUUUUUUUUUUAAAGA | 7.35
AGCGUUCAGGAAUUCAUGACCUUUACAAGUCAACUGAUUGUGGAACGCUCGGGGAAAGGCACUAGAGCUUCUGUCAAAGAACAAGAGUAUCUUUGCCAUGUCUACGUCCGGAGCGACAGU | 0.0867
AAAGGCAGCUGUGUUAUCUGUGUCAUUUCAUAAGUAACUCUGGGGGAGGGAAAUUCUGUUCUUUUGUUUAAUUUUCCCCCAAAUGAAGCCAAAGUGUGUGUUGAAGAACUGAGAAAAAAU | 0.224
CACACACUCUUCUGCGGCACCCUCAUUUUGCAGGCCCGGGCCUAUGUGGGACCGCACGUCCUGGCAGUGGUGACUCGCACAGGGUUCUGCACGGCAAAAGGGGGCCUGGUGAGCUCCAUC | 0.169
AUCAAAUAUUUUGGGGACAUCAUUAGUGUGGGACAGAGACUGUUGCAAGGAGCUCGGAUCUUAGGGAUUCCAGUUAUUGUAACAGAACAAUACCCCAAAGGACUUGGCAGCACCGUUCAA | 0.177

Series 2 — target: CCNA1, cyclin fold, Cln2 fusion (human); technique: yeast growth competition, sequencing; sample: yeast; notes: weak parent motif; baseline: not given; reading: higher = stronger binding
Starting sequence: WEE1 docking peptide (human); HKTFRKLRLFDTP
Substitution | normalised enrichment score
R8G | 0.234
F10S | 0.0357
T3E | -0.17
L9T | 0.118
F10N | 0.00978
F10P | 0.486
K6G | 0.267
F4W | 0.727
K6T | 0.318
K6I | 0.45
R8S | 0.651
L7I | 0.566
T12D | 0.517
K2I | 0.05
L7A | 0.0657
R5I | -0.144
T3H | 0.502
P13R | -0.0904
R5V | -0.103
R5H | 0.522
P13G | 0.00982
F10D | 0.0356
F10V | 0.234
R8F | -0.228
F4H | 0.408

Series 3 — technique: RNA Bind-n-Seq; molecule type: RNA; sample: in vitro; tested at: 365 nM; baseline: no-protein control; reading: higher = stronger binding
Target: RNA binding protein fox-1 homolog 2, RRM domain, GST-SBP tag (RBFOX2, Homo sapiens, UniProt O43251-10, residues 100-194)
Notes: natural RNA segment, single round, ends assumed
All sequences stand within: GGGAGUUCUACAGUCCGACGAUC … UGGAAUUCUCGGGUGCCAA
Strand | RBNS enrichment (R)
AAGCUGGAGGAGGAAGGGGAGUUUUGACUAAAGUUCCUUUUGUUUGUUUUAAAUUUUCAUCAAUGUAUAUAGAACAAAAUACCAUAUUAAAGAGGGGAAUGUGGAGGACU | 0.776
CAUUUUAGAAUAACAAGAACACCAAGAAUUACCCCUAAAACAGAGACCCUGUAUUUAAUCUACUUUGAUCAGAGAAGUAGAAUUUAUAACAGGUUAGCUAAAAUUGGGAG | 0.481
AUUUUUUUUGUUGUUCUUUUGUGAUUAAGGAUAUACAUUUAGUAGUCUUUGUUAUUAAAGGAACCUGCUGAUAAGUACAAGUGUGACCAUCUCAUUCAAAUGUUUGUUGU | 0.391
GCUGAGAGCACUGGUGGGUUUGCAGGAGGCUGGGUGCUUCAGCCUACCCUUCCCCUUCCCCUCCCUUCCCUCUGCAAGGCUCAAGCCUGGUUUGCACUCAGUGUAGAAGA | 0.406
UCUCCUAAUAUGCUGUUUCCAUUAUGACACAGCAGCUCCUUUGUAAGUACCAGGUCAUGUCCAUCCCUUGGUACAUAUAUGCAUUUGCUUUUAAACCAUUUCUUUUGUUU | 1.82
UGCCUCUGUACAAGAUGUAGCUUUGAGAGCUACAAAAUGAUAACACUGCUUUAUUACACACUGGUUUCAUUGUCAUUGCAAAAACUUACCCUGGUUGUGGGGGAGAGUUC | 0.554
UUUCUUUUUUGGGUUUCUUUCUAGGAAAAUGAGAAGUGCAUGCAAGGGGCAGGAGAUGACCCUCCCCUAGGCUUUCAGCUUCAGGCAGCUUCUUCACAGCCUGUUCAGCC | 13.7
UAAUACAUCAUUCCAGUCUUGCUGGUAAUUUUGUACAGUAUAGUGUAUGAAUUGCUGUGCUGCAAAGCCAAACAGCUGCAAAAUGUUGAAAAAUCAUCGAAAUGUAUAAA | 0.525

Series 4 — technique: protein binding microarray; molecule type: double-stranded DNA, one strand shown; sample: in vitro; tested at: not given; baseline: not given; reading: higher = stronger binding
Target: Histone acetyltransferase KAT6A, winged helix 1, GST fusion (KAT6A, Homo sapiens, UniProt Q92794, residues 1-85)
Notes: 8-mer, flanks averaged, mean of 2 arrays, mostly near background
Residues (chain): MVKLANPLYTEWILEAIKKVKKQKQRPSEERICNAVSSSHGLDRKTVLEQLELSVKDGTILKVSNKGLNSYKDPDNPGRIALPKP
Strand | E-score
CCCACGAC | -0.0914
ATTCCTTC | -0.0541
TAAGTCCA | -0.172
ACAGACAA | -0.0885
CAGTACGG | 0.239
CGACAAGC | 0.225
CAGCGCCA | 0.188
CCTAATGA | -0.148
GCACCACA | -0.0763
ACCGAGAT | -0.0398
AGATATTA | -0.00194
CCGCTTGA | 0.223
CTGTGTAA | -0.144
AGACAAGA | -0.0425
CCTTTTTA | -0.167
GGGCATAA | -0.142

Single results of other studies
Substance | target | assay | test system | conditions | scale | measurement | value
PhoQ, residues 284 288 289 292 302 303 NLCILV | PhoP, residues 12 14 15 18 19 DLLYY (Escherichia coli, UniProt P23836) | Sort-seq, refers to: YFP reporter | E. coli | PhoQ-PhoP variant library, added: 10 µM Mg2+ | baseline: high Mg2+ state, higher = stronger signaling | fold induction | 1.46

For quick reference, copied from above (series 4):
Strand | E-score
CCCACGAC | -0.0914
ATTCCTTC | -0.0541
TAAGTCCA | -0.172
ACAGACAA | -0.0885
CAGTACGG | 0.239
CGACAAGC | 0.225
CAGCGCCA | 0.188
CCTAATGA | -0.148
GCACCACA | -0.0763
